Values quoted from earlier work, collected from citations in different studies.
Each numbered part shows a few of the values that one paper quotes. ± marks the error that the study gave.

Block 1 — organism: Cryptosporidium parvum; technique: high-throughput screen; concentration: concentration not given
`CC#C[C@]1(O)CC[C@H]2[C@@H]3CCC4=CC(=O)CCC4=C3[C@@H](c3ccc(N(C)C)cc3)C[C@@]21C` — result for activity: “inactive”.
Under activity, `Oc1ccc(/C=C/c2cc(O)cc(O)c2)cc1` is recorded as “inactive”.
Under activity, `CC(=O)OCC(=O)[C@@]1(O)CC[C@H]2[C@@H]3C[C@H](C)C4=CC(=O)C=C[C@]4(C)[C@H]3[C@@H](O)C[C@@]21C` is recorded as “inactive”.
Under activity, `COC(=O)C1=C(C)NC(C)=C(C(=O)OC)C1c1ccccc1[N+](=O)[O-]` is recorded as “inactive”.
`Cc1ccc(NC(=O)c2ccc(CN3CCN(C)CC3)cc2)cc1Nc1nccc(-c2cccnc2)n1`: activity “inactive”.
Under activity, `O=C1N[C@H](C(=O)O)CS1` is recorded as “inactive”.
Under activity, `C[C@]12C=CC(=O)C=C1CC[C@@H]1[C@@H]2C(=O)C[C@@]2(C)[C@H]1CC[C@]2(O)C(=O)CO` is recorded as “inactive”.
`NS(=O)(=O)Cc1noc2ccccc12` — result for activity: “inactive”.
`C=CC1=C(C(=O)O)N2C(=O)[C@@H](NC(=O)/C(=N\OCC(=O)O)c3csc(N)n3)[C@H]2SC1`: activity “inactive”.
`Cc1ccc(Cl)c(Nc2ccccc2C(=O)O)c1Cl`: activity “inactive”.
`CCOC(=O)C1=C(C)NC(C)=C(C(=O)OC)C1c1cccc(Cl)c1Cl` (stereo not drawn) — result for activity: “inactive”.
Under activity, `Nc1ccc(O)c(C(=O)O)c1` is recorded as “inactive”.
Under activity, `Cl.NC[C@H](O)c1ccc(O)c(O)c1` is recorded as “inactive”.
For `COc1ccc(Cl)cc1C(=O)NCCc1ccc(S(=O)(=O)NC(=O)NC2CCCCC2)cc1`, activity read “inactive”.
`CC(=O)Nc1ccc(CC(=O)O)cc1` — result for activity: “inactive”.
`COc1ccc2[n-]c([S+]([O-])Cc3ncc(C)c(OC)c3C)nc2c1.COc1ccc2[n-]c([S+]([O-])Cc3ncc(C)c(OC)c3C)nc2c1.[Mg+2]` (stereo not drawn): activity “inactive”.
`CC(C(=O)O)c1cccc(C(=O)c2ccccc2)c1` (stereo not drawn) — result for activity: “inactive”.
Under activity, `Cc1[nH]c(=O)c(C#N)cc1-c1ccncc1` is recorded as “inactive”.

Further values, each from its own experiment
For `C#C[C@]1(CO)O[C@@H](n2cnc3c(N)nc(F)nc32)C[C@@H]1O`, “plasma Cmax decrease” read 49% (human; 30 mg, with: high-fat meal; relative to: fasted).
The terminal half-life of `C=C(F)C(=O)N1CCN(c2nc(OC[C@@H]3CCCN3C)nc3c2CCN(c2cccc4cccc(Cl)c24)C3)C[C@@H]1CC#N` is reported as 23 h (patients, advanced solid tumours; dose not given).
`COc1cccc2c1OCC(C(=O)Nc1ccc3c(c1)CN(C1CCC(=O)NC1=O)C3=O)=C2` (stereo not drawn) gave a half-life of 8 h.
The IC50 of `CN(C)c1ncnc(-c2ccc3nc(Nc4cc(CN5CCN(C(=O)CC(F)(F)F)CC5)ccn4)[nH]c3c2)c1Cl` is reported as greater than 20000 nM (TBK1; biochemical; high ATP).
The turnover rate of `CC(C)=CCC[C@@H](C)[C@H]1CC[C@@]2(C)C3=C(CC[C@]12C)[C@@]1(C)CC[C@H](O)C(C)(C)[C@@H]1CC3` is reported as 3.2 nmol/min/nmol P450 (CYP51 (zebrafish); substrate).
The ED99 of `Cc1cn([C@H]2C[C@H](N=[N+]=[N-])[C@@H](CO)O2)c(=O)[nH]c1=O` is reported as 10 nM (human immunodeficiency virus 1; viral replication; PBMC, LAI).
The AC50 of `C[C@]12CC[C@@H]3c4ccc(O)cc4CC[C@H]3[C@@H]1CC[C@@H]2O` (single isomer, unassigned) is reported as 0.077 nM (estrogen receptor alpha; receptor activity, agonist; ToxCast).
`CCOC(=O)c1cc2cc(-c3cc(C(=O)NCc4ccc(C(=O)O)cc4)nn3C)ccc2[nH]1` has an IC50 of 31 nM (MMP13; cellular activity).
With `CCCCC[C@H](O)CC[C@@H]1[C@H]2Cc3cccc(OCC(=O)O)c3C[C@H]2C[C@H]1O` the AUC(0-inf) was 0.26 ± 0.08 ng·h/mL (non-Japanese healthy adults; 18 µg).
The Kd of `c1ccc2c(c1)Cc1ccccc1-2` is reported as roughly 15000 nM (amyloid beta oligomers; binding).
For `[N-]=[N+]=N[C@]1(CO)O[C@@H](n2ccc(N)nc2=O)[C@@H](F)[C@@H]1O`, the EC50 was 0.063 nM (HIV-1; viral replication; HEK-293T).
For `CC(C)(Oc1ccc(Cl)cc1)C(=O)O`, the IC50 was 28000 nM (sweet taste receptor; inhibitor; with: sucralose 2.5 mM).
With `C[C@@H]1CN(c2cc(-c3n[nH]c4ccc(OC5(C)CC5)cc34)ncn2)C[C@H](C)O1` the IC50 was 1170 nM (HTR2B; radioligand binding).
`C1=C/COCc2cc(ccc2OCCN2CCCC2)Nc2nccc(n2)-c2cccc(c2)COC/1` has a Cmax increase of 30% (human; dose not given, with: clarithromycin; relative to: without clarithromycin).
With `N#CN1CC[C@H](C(=O)Nc2nc3c(s2)CN(C(=O)CN=[N+]=[N-])CC3)C1` the IC50 was 320 nM (UCHL1; biochemical activity).
For `Cn1c(Cn2ccc(C(F)(F)F)c(Oc3cc(Cl)cc(C#N)c3)c2=O)n[nH]c1=O`, the EC95 was 20 nM (HIV-1; viral replication; wild type; 50% human serum).
`CCCCc1oc2ccc(NS(C)(=O)=O)cc2c1C(=O)c1ccc(OCCCN(CCCC)CCCC)cc1` gave a Cmax of 290 nM (human, plasma; 800 mg single dose).
`CCc1cc(Cl)c(OC)c(C(=O)NC[C@@H]2CCCN2CC)c1O` gave a Ki of 48 nM (dopamine D4 receptor; binding).

A few entries again (further values, each from its own experiment):
The turnover rate of `CC(C)=CCC[C@@H](C)[C@H]1CC[C@@]2(C)C3=C(CC[C@]12C)[C@@]1(C)CC[C@H](O)C(C)(C)[C@@H]1CC3` is reported as 3.2 nmol/min/nmol P450 (CYP51 (zebrafish); substrate).
With `CCCCC[C@H](O)CC[C@@H]1[C@H]2Cc3cccc(OCC(=O)O)c3C[C@H]2C[C@H]1O` the AUC(0-inf) was 0.26 ± 0.08 ng·h/mL (non-Japanese healthy adults; 18 µg).
`C1=C/COCc2cc(ccc2OCCN2CCCC2)Nc2nccc(n2)-c2cccc(c2)COC/1` has a Cmax increase of 30% (human; dose not given, with: clarithromycin; relative to: without clarithromycin).
`COc1cccc2c1OCC(C(=O)Nc1ccc3c(c1)CN(C1CCC(=O)NC1=O)C3=O)=C2` (stereo not drawn) gave a half-life of 8 h.
